Assay results pooled from the literature.
Every numbered part comes from another study and shows a few of its results, in no order.

Study 1 — target: UBE2D1 UBC core domain (UniProt P51668); method: yeast two-hybrid; sample: yeast; notes: mostly zero background; relative to: not given; direction: higher = stronger interaction
B1: RLIM RING domain (UniProt Q9NVW2); chain SFGENDALKTCSVCITEYTEGNKLRKLPCSHEYHVHCIDRWLSENSTCPICRRAVLASGNRE
B2: TRIM22 RING domain (UniProt Q8IYM9); chain VKVDIEKEVTCPICLELLTEPLSLDCGHSFCQACITAKIKESVIISRGESSCPVCQTRFQPGNLRP
B3: MYCBP2 RING domain (UniProt O75592); chain TSLKQDADDMCMICFTEALSAAPAIQLDCSHIFHLQCCRRVLENRWLGPRITFGFISCPICKNKINHIVLKD
B4: TRIM31 RING domain (UniProt Q9BZY9); chain FVNKLQEEVICPICLDILQKPVTIDCGHNFCLKCITQIGETSCGFFKCPLCKTSVRKNAIRF
Construct (chain): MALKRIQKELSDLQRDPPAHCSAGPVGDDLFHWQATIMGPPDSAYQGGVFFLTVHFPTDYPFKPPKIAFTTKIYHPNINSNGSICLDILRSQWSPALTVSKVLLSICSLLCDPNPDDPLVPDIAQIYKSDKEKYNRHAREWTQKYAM
`LGTKLEAKYLCSACRNVLRRPFQAQCGHRYCSFCLASILSSGPQNCAACVHEGIYEEGIS (TRAF2 RING domain (UniProt Q12933))`: “lacZ reporter activity” 0.
`MNDVLENELQCIICSEYFIEAVTLNCAHSFCSYCINEWMKRKIECPICRKDIKSKTYSL (RNF8 RING domain (UniProt O76064))` — result for “lacZ reporter activity”: 0.
Under “lacZ reporter activity”, `B1 (RLIM RING domain)` is recorded as 0.
For `B2 (TRIM22 RING domain)`, “lacZ reporter activity” read 0.
For `B3 (MYCBP2 RING domain)`, “lacZ reporter activity” read 0.
Under “lacZ reporter activity”, `B4 (TRIM31 RING domain)` is recorded as 0.

Study 2 — method: universal PBM; form: double-stranded DNA, one strand shown; sample: in vitro; tested at: not given; direction: higher = stronger binding
Target: Sal-like protein 4, full length isoform B (SALL4, Homo sapiens, UniProt Q9UJQ4-2, residues 1-616)
Notes: 8-mer, flanks averaged, mean of replicates
Construct (chain): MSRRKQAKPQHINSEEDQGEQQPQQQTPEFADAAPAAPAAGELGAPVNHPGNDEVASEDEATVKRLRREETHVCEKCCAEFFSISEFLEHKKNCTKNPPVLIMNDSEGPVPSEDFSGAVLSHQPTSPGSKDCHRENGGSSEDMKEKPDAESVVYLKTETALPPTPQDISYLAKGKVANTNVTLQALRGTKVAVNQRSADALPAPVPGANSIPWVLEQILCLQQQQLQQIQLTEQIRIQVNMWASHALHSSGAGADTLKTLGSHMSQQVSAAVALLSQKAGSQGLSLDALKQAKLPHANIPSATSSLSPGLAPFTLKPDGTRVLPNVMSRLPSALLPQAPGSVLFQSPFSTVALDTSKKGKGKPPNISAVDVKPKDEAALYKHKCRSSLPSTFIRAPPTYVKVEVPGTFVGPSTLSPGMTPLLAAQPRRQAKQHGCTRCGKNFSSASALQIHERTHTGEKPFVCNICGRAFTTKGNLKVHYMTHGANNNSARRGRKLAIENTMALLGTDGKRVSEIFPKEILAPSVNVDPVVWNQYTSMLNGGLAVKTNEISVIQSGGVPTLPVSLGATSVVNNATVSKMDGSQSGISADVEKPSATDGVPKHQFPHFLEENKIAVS
With `CCTGGCGC` the E-score was -0.348.
`CGCCGCCG` gave an E-score of -0.368.
The E-score of `ACGCCTTA` is reported as -0.0206.
For `CGCATGAA`, the E-score was -0.0471.
For `GTATACAC`, the E-score was 0.236.
`AGTTTCGA` has an E-score of -0.0218.
For `CGAACTCC`, the E-score was -0.0628.
For `CGGCAGGA`, the E-score was -0.361.
The E-score of `GACGGCTC` is reported as -0.244.

Study 3 — method: RNA Bind-n-Seq; form: RNA; sample: in vitro; tested at: 1 µM; notes: whole 134-nt RNA, ends assumed; together with: 150 mM KCl; relative to: input library; direction: higher = stronger binding
Target: Ras GTPase-activating protein-binding protein 1, C-terminal RGG region (G3BP1, Homo sapiens, UniProt Q13283)
Sequence of UniProt Q13283 (whole entry, looked up): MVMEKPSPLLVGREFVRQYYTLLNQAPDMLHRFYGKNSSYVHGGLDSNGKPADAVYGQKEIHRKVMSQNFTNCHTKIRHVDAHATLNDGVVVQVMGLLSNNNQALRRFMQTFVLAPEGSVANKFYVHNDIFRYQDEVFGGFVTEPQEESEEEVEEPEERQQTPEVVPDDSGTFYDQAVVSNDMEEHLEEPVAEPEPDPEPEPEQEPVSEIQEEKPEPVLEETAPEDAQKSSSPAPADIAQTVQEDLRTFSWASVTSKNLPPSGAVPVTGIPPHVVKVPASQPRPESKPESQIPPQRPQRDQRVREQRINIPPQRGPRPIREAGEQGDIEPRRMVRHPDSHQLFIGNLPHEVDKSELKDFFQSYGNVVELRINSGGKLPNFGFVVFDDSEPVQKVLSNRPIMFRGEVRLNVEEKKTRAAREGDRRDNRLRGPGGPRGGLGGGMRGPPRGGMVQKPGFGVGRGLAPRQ
For `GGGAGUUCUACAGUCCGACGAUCCACAGACAACACGCACCUACACAGACACAGAGGGAAGGGGUUGGGAUGGGGACAGGGUGCACAGCAGGGCGGGGUAGGACCCCAGCCCCUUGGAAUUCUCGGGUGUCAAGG`, the log2 enrichment was -0.156.
`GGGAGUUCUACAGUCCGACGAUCUCCUCAAGUCCUGUGCUACACAUCGUAUGUACCGAAUCGGAAAGGAGGUGGAAAGUAUUAUGUUACGCCGUUCGGAUCUGCACUUCCAGCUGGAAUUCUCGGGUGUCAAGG` has a log2 enrichment of -1.22.
`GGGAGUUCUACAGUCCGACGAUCGCAGGAAGUAAAAACAAAAAAAAAUGCUUCGGAUAGUGGCAGGGGUGGGGGUUGCUAAGGAAAGGGUGGGAUGGGAGUGGGUAAAGAGUUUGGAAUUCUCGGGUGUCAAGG` gave a log2 enrichment of 1.91.
The log2 enrichment of `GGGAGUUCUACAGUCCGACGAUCAAGUCCUGUGCUACACAUCGUAUGUACCGAAUCGGUUUUUGGUUUUUUUGGAAAGGAAAGUAUUAUGUUACGCCGUUCGGAUCUGCACUUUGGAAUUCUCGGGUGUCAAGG` is reported as -2.05.
The log2 enrichment of `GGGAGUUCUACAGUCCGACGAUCGUCCUGUGCUACACAUCGUAUGUACCGAAUCAAAUUUUUAAACCCAAAUUUUUUUAAAAAAGUAUUAUGUUACGCCGUUCGGAUCUGCACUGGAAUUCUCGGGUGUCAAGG` is reported as -1.16.
`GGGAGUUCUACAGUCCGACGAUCCUGUGCUACACAUCGUAUGUACCGAAUCGGGAAAAAAAGGGAAAAAAAGGGAAAAAAAGGGAAAGUAUUAUGUUACGCCGUUCGGAUCUGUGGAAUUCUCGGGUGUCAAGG` gave a log2 enrichment of -1.68.
For `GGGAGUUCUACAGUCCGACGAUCCCUGUGCUACACAUCGUAUGUACCGAAUCGGGGUUUUUUUGGGGUUUGGGGUUUUUGGGGAAAGUAUUAUGUUACGCCGUUCGGAUCUGCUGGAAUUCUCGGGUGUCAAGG`, the log2 enrichment was 0.938.
The log2 enrichment of `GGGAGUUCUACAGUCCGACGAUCUGGGAGGUGGAUUUUGUUUAUUUUAUUAGCUCAUUUCCAGGGGUGGGAAUUUUUUUUUAAUAUGUGUCAUGAAUAAAGUUGUUUUUGAAAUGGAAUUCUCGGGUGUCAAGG` is reported as 3.39.
With `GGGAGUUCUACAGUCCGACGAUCCCUGUGCUACACAUCGUAUGUACCGAAUCAAACCCCCCCAAACCCCCCCAAAUUUUUAAAAAAGUAUUAUGUUACGCCGUUCGGAUCUGCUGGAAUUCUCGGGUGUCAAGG` the log2 enrichment was -0.559.

Further values, each from its own experiment
`RRS1 (Homo sapiens, UniProt Q15050)`: cross-linked residues “K279 to K94” (NIP7 (Homo sapiens, UniProt Q9Y221); cross-linking MS; cell fractions; together with: DSSO).

Repeated from above (study 2):
For `CGAACTCC`, the E-score was -0.0628.
For `CGGCAGGA`, the E-score was -0.361.
The E-score of `GACGGCTC` is reported as -0.244.
